Published values collected from several papers.
Parts stem from different laboratories: compare values within a part only.

Sample 1
Target: Histone acetyltransferase KAT6A, both winged helices, GST fusion (KAT6A, Homo sapiens, UniProt Q92794, residues 1-181)
Technique: protein binding microarray
Molecule type: double-stranded DNA, one strand shown
Sample: in vitro
Concentration: not given
Notes: 8-mer, flanks averaged, mean of 2 arrays, mostly near background
Baseline: not given
Direction: higher = stronger binding
Residues (chain): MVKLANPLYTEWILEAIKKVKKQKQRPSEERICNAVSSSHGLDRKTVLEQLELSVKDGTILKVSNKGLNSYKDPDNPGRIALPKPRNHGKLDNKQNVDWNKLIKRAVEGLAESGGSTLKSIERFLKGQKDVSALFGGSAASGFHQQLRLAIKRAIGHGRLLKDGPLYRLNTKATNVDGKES
| Strand | E-score |
| --- | --- |
| CATAATGC | 0.0319 |
| AACAATTG | -0.0721 |
| AATGAATT | 0.00943 |
| CATAGGCG | 0.12 |
| AAGTCTGT | -0.139 |
| ACACGCAA | 0.113 |
| GAAGCCGC | 0.27 |
| GTGAGATA | -0.0278 |
| TGCCTTAA | -0.219 |
| TAAATTGA | -0.148 |
| ACCACGAG | -0.0463 |
| ATGTATTA | 0.00343 |
| CCTCTACC | -0.102 |
| ATAAGGGG | -0.198 |
| AGTGCGTA | 0.087 |
| AGGGACAA | 0.0432 |
| TTATTGAA | -0.231 |
| CGAACCGA | 0.149 |
| CATAACGC | 0.111 |
| CCATGCGG | 0.122 |
| ACATGAGA | -0.00575 |
| TCGCATAA | 0.127 |

Sample 2
Target: Interferon regulatory factor 3, full length, phosphomimetic (IRF3, Homo sapiens, UniProt Q14653, residues 1-427, S386D/S396D/S398D/S402D/T404D/S405D)
UniProt Q14653, sequence (whole entry, unmodified, looked up): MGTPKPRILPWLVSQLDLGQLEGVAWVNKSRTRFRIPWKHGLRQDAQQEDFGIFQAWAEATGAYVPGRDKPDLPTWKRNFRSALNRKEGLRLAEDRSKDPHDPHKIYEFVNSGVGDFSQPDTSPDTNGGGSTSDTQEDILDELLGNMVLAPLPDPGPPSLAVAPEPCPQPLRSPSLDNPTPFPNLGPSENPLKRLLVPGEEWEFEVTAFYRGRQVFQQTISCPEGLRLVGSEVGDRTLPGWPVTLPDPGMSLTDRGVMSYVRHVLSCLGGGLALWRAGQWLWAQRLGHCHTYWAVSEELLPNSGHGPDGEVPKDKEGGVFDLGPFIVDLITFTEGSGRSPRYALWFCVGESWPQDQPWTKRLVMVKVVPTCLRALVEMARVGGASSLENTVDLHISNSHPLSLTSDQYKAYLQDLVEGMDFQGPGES
Technique: protein-binding microarray
Molecule type: double-stranded DNA, one strand shown
Sample: in vitro
Concentration: 2540 nM top
Notes: 60-bp whole probe
Together with: salmon DNA 0.4 mg/ml
Baseline: random background probes
Direction: higher = stronger binding
All sequences stand within: GCCTAGCAC … GTCTTGATTCGCTTGACGCTGCTG
| Strand | fitted relative affinity |
| --- | --- |
| ATGATGTGTCAAAAATTGCAGTGCTAG | -0.116 z-score |
| TCAACTCTGAACCTTGGACTGTGCTAG | -0.199 z-score |
| GACGATTTCAGTTCCGGGACGTGCTAG | 3.28 z-score |
| TTAGGACTTGGTATCGGTTAGTGCTAG | 1.41 z-score |
| CATTTTCTTTAACTCATTCTGTGCTAG | 3.7 z-score |
| TTAGGTATCGACACTGGGTCAGTGCTA | 0.196 z-score |
| TCATCTTTCGTTACTTCACTGTGCTAG | 2.05 z-score |
| TTAGGTATCAGACTGGGTTAGTGCTAG | 1.19 z-score |
| TTAGGTCTCGGTTTCTGTTAGTGCTAG | 3.37 z-score |
| TCCCCTCTCATTCCAATTCTGTGCTAG | 1.29 z-score |
| TTAGGACTGGACTATCGTTTAGTGCTA | -0.453 z-score |
| GACGGTTCCGGTTCCGGGACGTGCTAG | 4.97 z-score |
| GGCGGTATCGGTCTCGGGACGTGCTAG | 4.4 z-score |
| TTAGAACTGGGGACTGGCTTAGTGCTA | -1.08 z-score |
| TTAGAACTGAGTATCGAATAGTGCTAG | 0.0367 z-score |
| GATGGTATCGGTTTCGGGACGTGCTAG | 6.99 z-score |
| GGGCATTTGGAAAATGTAAACGTGCTA | -0.0708 z-score |
| TTAGGACTGCTTTACCTTTAGTGCTAG | 0.165 z-score |
| TCAACTCTTCTTTTGCTACTGTGCTAG | 0.739 z-score |
| TTTTCATTATTGTCTCCCCCAGTGCTA | 2.64 z-score |

Sample 3
Target: RNA binding protein fox-1 homolog 2, RRM domain, GST-SBP tag (RBFOX2, Homo sapiens, UniProt O43251-10, residues 100-194)
Technique: RNA Bind-n-Seq
Molecule type: RNA
Sample: in vitro
Concentration: 365 nM
Notes: natural RNA segment, single round, ends assumed
Baseline: no-protein control
Direction: higher = stronger binding
All sequences stand within: GGGAGUUCUACAGUCCGACGAUC … UGGAAUUCUCGGGUGCCAA
Target sequence (chain): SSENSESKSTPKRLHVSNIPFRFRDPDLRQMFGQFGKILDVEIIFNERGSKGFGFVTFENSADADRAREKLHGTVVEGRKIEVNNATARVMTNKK
| Strand | RBNS enrichment (R) |
| --- | --- |
| CCAGUUUGGAUUGAUGAAAGUGAUUUUUCUGCUUUACCUUUUUCCUGUCAGAAAGGUUUUCCUCUGUGCUACCCUUAACUUAGGGAUGAACAGACUAUAACUAGGAAAGG | 0.31 |
| UAGGGGCUCACAACCAAGGUCCGGAGGCAACACAUAGUGGGAGCUCUUCCCCAGCACAGGGCAGACAGUGCUCACAAACAUUUGCCACUGGCCAUUGUCUCUGGAUCCCC | 0.261 |
| UUCUCUACCCUUUUAAAGGCAAAAGUAUUGGGAUGCAAUACUAUCUUAAUGUCCCUAUCUGUGGUGUGUGUGCACUUGCUGUGACCUUCCCAGUAGUCCCUCCAUGACAG | 0.418 |
| GGAUCAGAACUUACAAACCAAACUUUUAUUCUGAGAAACUGGCUGUACAAUAUCUAAAAAGAAAGUGACAUGAAGGAAGCAAUCUACAACUUCCUUCCGCUUAGCGAGCA | 0.586 |
| GAAGCCUCCCUCCCUCCCUCUGCCUCCCUUCCCCAGGACACCAAGAGCGCCCUCUCCUGAGCCCUGGCAGACCGACUGCAGGUAGCAGGAUUGCAGGACCCUCUGCCUGG | 1.19 |
| UAAUAAUCUGUGCCAACUCUACCUUCUCACUUUUACCUCUGACGUCAUUCUUUUUUUCUGAAAGAGGUAAUAAUUCUAGUUUUGAUAGACUCUGAGGAUUAUGUGAACAG | 0.374 |
| AGCCCUUCAAGUGCACUGAGCUAUGUGACUCGGAUGGUCUUUCACACGGCACAUUUGGACAUUUCCAGAACUACCAUGAGAUGGUUUAGACGGGAAUUCAUGCAAAUGAG | 0.463 |
| GGGUGAAGAACCCUCUGUCCCACCCCUAGCCACCAGUGUCCUCCAAGUGCCCCCUCACCUCUCCAGGUGCUCAUUGUAACCAUUUCUCACUAGUGUCAGGCCCCCAGUGG | 0.409 |
| ACAGACUGCCUGCUCUAGGAUCUCUUGCUGUCUUCUCCUGGUCUCUGGCUUCUGCCUCACCUGCAACAGGUCUGUCUAUACAUCUGUCUGGGUUGCUGUCAUUUCUGUUU | 1.89 |
| AAUUUUUGACUUAAUUUUGAAAUCGUAUAUAUGAGCUAUACUUUAACAUUAUGAGAGAAAAGCAUAAAACAAAAAUAGGUAGUUCUUGGCUUUUAACAUUAAUGCAAAUC | 0.617 |
| UUCAAUGGAUUUUCCUCUUGAAAUGCUUUGUCUACUCAGUUAUAAAAUAUUCAGAUACAAGUUUUAUCUCAGGUGAAUACUCUUGUAUUGUUUUUGCUUUGGUGACAUGC | 0.397 |
| UAAGCUUUGGUUCUUUAGGGUGACUGUGGUAAGAAGGAUAUUUAAUCAUGACAUGCACGGACACGUACAUAUUUAACUGAAACAAGUUUUACCAAACAGUAUUUACUCGU | 0.753 |

Sample 4
Target: RING finger protein unkempt homolog, zinc fingers 1-6, GST-SBP tag (UNK, Homo sapiens, UniProt Q9C0B0, residues 30-357)
Technique: RNA Bind-n-Seq
Molecule type: RNA
Sample: in vitro
Concentration: not given
Notes: RNA with constant flanks, human-mouse chimeric sites, ends assumed
Baseline: input RNA pool
Direction: higher = stronger binding
All sequences stand within: GGGAGUUCUACAGUCCGACGAUC … CAACAGAGGAUUGAGCAUCA
Residues (chain): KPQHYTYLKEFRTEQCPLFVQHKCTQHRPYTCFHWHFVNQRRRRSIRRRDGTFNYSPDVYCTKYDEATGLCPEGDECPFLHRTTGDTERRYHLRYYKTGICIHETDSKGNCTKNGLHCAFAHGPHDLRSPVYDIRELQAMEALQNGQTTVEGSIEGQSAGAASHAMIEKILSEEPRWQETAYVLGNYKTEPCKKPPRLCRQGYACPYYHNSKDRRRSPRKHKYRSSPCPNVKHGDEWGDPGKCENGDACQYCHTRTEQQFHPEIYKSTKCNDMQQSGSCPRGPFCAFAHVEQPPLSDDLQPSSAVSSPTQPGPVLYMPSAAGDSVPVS
| Strand | bound/input enrichment [ratio] |
| --- | --- |
| CACACACUCUUCUGCGGGACCCUCAUCUUGCAGGCCCGAGCCUACGUGGGACCGCACGUCCUGGCAGUGGUGACCCGCACAGGGUUCUGCACGGCAAAAGGGGGCCUGGUGAGCUCCAUC | 0.0658 |
| AAAGCCCAAGUAUUUUGAAAAAACUCGAACAGAUUUGACAAGGGUAGCCAGCUUGGAGUCUAGCAAUUUUGCCAAUGGUUUACCAAUCUGGGGGCUUGUUUUUCUUUUCUUCUUUCAAAU | 0.388 |
| AAAGAGAAACUAAAGCAACUAAUAGAGAAGAGGAUUGGCAAAGAGAAUUUCAUAGAGAAACUAGGAUUUUAUUAGCAACAUGAGUUAGUAUUCCAGACGUCUCAGAAACCCCAGCCAAAC | 5 |
| UUCAAAGAAAAGGGCAGCUGUGUCAUUUCAUAAGUAACUCUGGGGGAGGGAAAUUCUGUUCUUUUGUUUAAUUUUCCCCCAGAUAAAGCCAAAGUGUUUUUUAAGGAACUGAGAAAAAAU | 0.0877 |
| GCUCCUCCCCGCUCUGCAGCCUGGGGACUUUUGGCAAGGACCAGAAUCCAGCUUUCUUUUAAAACUCUAUAUUUUUUUGUAUCCCGUGACAUUUCAUUUUUUUUAAAUAGUGUAUUUUUU | 18.8 |
| AAAGAACCUCUCUCUGAUGAAGAUGAGGAAGACAAUGAUGAUGUUGAACCCAUUUCUGAAUUUCGAUUUGUGCCCAGUGAUAAGUCAGCAUUGGAGGCAAUGUUCACUGCAAUGUGCGAG | 0.174 |
| UUUGUUUUUAUGCUAAGCACACGUGCUGGUGGUCUGGGCAUCAAUCUUGCAACUGCUGAUGUAGUCAUUUUAUAUGAUUCUGAUUGGAAUCCGCAAGUUGAUCUUCAGGCUAUGGACCGU | 0.221 |
| AGAGAUAAGACAUCCAGGAACAUGCGAGGCUCCCGGAUGAAUGGGUUUCCAAGUCCCACUCACAGCGCCCACUGUAGCUUCUACAGAACCAGAACCUUGCAGGCACUGAGUAAUGAGAAG | 0.0613 |
| AACUUCGUGCAUCGGUUUCCCUUUGUAGCUGUUUCAAUUGGCUUUGCUGUGAAUAAAAAGAUAGAAUUUGGAAUUGUGUACAGCUGUGUGGAAGAUAAGAUGUACACCGGCAGGAAAGGG | 5.12 |
| ACUCAGAGAUCCACCUCCCAAAGUGCUCUGGAGCUCUUCUGAUAUUACACACCUAACUUGAUGGAUAUAUAUUUUUUUUAAUAUGAAUCUUCCUGUUCGUCCAGGGAAGAAAGAUUUGUU | 1.21 |
| AAAGAUCUACUGAGGCAAGGCAGCAAAUUUAGGAGAGACAUUUCAACAAUAUUGAUAGAGUUAGGAUUCCAAAUUAAAAAGAAAACUAAGACAUUAUACAUCAACAAAGCCAAUAUCUGG | 6.78 |

Sample 5
Target: PABPC1L2, full length, GST fusion (mouse, UniProt A0ABA7IW68)
Technique: RNAcompete
Molecule type: RNA
Sample: in vitro
Concentration: 20 nM
Notes: 7-mer, probes averaged, single round
Baseline: mean of 7-mers
Direction: higher = stronger binding
Target sequence (chain): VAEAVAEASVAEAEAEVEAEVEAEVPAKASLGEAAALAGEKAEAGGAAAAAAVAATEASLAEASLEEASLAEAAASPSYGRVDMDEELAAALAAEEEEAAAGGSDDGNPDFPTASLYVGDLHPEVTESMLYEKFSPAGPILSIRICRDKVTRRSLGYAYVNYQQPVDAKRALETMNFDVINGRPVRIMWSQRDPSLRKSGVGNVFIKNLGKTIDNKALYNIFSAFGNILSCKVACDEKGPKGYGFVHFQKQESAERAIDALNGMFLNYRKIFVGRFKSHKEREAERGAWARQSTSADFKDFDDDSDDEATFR
| Strand | 7-mer Z-score |
| --- | --- |
| AACUUGA | 0.166 |
| CCGGCUC | -0.333 |
| AAUGAUC | -0.00108 |
| CACAUGA | -0.162 |
| CUCCUGU | -0.403 |
| GUAAACC | -0.15 |
| CUAAGAC | -0.0246 |
| AGACGUG | -0.204 |
| ACUAUUG | -0.162 |
| CUGCUUC | -0.354 |
| CUUAGUG | -0.275 |
| GAGCCAU | -0.237 |
| GGCUUAC | -0.0518 |
| AGUCAGU | -0.302 |
| GUCAUUA | -0.0355 |
| AGUGGAG | 0.155 |
| UAAGCUA | -0.142 |
| GCGUUCA | -0.235 |
| CUGCCCC | -0.344 |
| AACGGGU | 0.307 |
| AGCCGAG | -0.238 |
| CAGAUGC | -0.0971 |

A few entries again (sample 1):
| Strand | E-score |
| --- | --- |
| TGCCTTAA | -0.219 |
| AGGGACAA | 0.0432 |
| AGTGCGTA | 0.087 |
| CGAACCGA | 0.149 |
| TCGCATAA | 0.127 |
